Measured values of several laboratories.
Lines come from different studies, so protocols differ. Several values in a cell are separate wells, animals, samples, runs or records. ± marks the error that the study gave.
USP16 ZnF-UBD domain: Ubiquitin carboxyl-terminal hydrolase 16, ZnF-UBD domain (USP16, Homo sapiens, UniProt Q9Y5T5)
UniProt Q9Y5T5, sequence (whole entry, looked up): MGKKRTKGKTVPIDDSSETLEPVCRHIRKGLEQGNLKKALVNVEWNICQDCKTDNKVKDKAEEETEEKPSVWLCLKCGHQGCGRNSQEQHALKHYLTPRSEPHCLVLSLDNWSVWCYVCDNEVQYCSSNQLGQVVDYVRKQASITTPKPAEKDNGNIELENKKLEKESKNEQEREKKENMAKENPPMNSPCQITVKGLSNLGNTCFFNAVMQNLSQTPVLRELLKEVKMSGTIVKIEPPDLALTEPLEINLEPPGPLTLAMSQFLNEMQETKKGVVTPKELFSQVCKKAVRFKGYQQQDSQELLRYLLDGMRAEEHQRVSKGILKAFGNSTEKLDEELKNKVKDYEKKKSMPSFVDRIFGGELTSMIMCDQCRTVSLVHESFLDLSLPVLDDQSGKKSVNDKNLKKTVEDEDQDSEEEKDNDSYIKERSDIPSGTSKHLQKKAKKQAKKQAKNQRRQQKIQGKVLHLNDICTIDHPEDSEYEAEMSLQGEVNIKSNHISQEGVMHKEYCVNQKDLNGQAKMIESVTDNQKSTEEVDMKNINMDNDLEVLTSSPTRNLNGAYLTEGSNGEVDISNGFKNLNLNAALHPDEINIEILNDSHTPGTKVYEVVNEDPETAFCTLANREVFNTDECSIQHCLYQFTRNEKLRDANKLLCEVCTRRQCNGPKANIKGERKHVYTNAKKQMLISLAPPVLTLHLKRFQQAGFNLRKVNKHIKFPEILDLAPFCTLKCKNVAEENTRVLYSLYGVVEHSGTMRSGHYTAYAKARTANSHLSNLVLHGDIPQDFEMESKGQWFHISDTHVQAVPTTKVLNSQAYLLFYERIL
CYP2D6: Cytochrome P450 2D6 (CYP2D6, Homo sapiens, UniProt P10635)
UniProt P10635, sequence (whole entry, looked up): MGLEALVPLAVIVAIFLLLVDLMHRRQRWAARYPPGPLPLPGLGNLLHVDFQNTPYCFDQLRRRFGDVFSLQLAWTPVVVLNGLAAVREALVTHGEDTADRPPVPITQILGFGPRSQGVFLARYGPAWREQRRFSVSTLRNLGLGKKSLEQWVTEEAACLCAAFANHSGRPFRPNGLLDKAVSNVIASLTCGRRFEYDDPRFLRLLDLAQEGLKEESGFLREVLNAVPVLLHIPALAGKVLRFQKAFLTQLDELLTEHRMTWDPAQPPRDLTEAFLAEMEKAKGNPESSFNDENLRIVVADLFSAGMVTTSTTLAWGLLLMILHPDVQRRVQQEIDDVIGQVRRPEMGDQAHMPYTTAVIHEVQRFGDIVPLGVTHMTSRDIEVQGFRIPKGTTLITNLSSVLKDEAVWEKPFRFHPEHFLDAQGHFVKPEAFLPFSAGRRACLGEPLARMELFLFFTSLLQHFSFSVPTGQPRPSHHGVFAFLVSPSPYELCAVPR
CSNK1A1: Casein kinase I isoform alpha (CSNK1A1, Homo sapiens, UniProt P48729)
UniProt Q6NT16, sequence (whole entry, unmodified, looked up): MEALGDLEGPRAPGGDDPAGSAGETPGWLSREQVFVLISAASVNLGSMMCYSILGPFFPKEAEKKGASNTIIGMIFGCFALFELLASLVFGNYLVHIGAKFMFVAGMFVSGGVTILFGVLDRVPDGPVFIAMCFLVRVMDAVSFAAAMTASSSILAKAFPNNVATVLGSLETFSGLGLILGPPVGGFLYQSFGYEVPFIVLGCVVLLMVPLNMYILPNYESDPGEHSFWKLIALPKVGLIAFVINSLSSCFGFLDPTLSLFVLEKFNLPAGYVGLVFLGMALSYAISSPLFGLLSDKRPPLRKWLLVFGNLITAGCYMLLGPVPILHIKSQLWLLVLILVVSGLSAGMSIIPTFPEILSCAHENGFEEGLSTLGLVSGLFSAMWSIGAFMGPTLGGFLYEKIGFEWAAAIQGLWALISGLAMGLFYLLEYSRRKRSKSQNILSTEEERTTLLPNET
UniProt P48729, sequence (whole entry, looked up): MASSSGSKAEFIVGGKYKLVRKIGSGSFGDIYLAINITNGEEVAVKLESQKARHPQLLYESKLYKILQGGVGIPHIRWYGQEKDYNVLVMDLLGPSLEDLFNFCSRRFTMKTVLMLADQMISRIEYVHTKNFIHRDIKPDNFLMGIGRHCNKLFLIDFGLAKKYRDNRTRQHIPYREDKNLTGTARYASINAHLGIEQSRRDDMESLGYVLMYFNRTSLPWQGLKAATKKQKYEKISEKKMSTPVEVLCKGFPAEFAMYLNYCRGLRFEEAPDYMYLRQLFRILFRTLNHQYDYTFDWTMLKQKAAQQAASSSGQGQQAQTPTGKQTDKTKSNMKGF
UniProt P51575, sequence (whole entry, unmodified, looked up): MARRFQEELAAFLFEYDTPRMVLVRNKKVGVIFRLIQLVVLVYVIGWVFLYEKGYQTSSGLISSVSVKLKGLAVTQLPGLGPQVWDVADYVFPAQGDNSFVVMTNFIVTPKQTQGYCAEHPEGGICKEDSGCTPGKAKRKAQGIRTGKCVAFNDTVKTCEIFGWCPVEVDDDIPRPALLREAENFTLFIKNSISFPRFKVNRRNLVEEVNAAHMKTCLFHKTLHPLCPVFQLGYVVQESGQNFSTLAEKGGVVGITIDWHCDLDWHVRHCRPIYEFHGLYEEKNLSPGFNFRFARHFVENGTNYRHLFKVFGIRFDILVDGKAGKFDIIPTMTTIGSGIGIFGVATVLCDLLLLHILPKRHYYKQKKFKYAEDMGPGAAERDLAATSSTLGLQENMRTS
UniProt Q9BQ39, sequence (whole entry, unmodified, looked up): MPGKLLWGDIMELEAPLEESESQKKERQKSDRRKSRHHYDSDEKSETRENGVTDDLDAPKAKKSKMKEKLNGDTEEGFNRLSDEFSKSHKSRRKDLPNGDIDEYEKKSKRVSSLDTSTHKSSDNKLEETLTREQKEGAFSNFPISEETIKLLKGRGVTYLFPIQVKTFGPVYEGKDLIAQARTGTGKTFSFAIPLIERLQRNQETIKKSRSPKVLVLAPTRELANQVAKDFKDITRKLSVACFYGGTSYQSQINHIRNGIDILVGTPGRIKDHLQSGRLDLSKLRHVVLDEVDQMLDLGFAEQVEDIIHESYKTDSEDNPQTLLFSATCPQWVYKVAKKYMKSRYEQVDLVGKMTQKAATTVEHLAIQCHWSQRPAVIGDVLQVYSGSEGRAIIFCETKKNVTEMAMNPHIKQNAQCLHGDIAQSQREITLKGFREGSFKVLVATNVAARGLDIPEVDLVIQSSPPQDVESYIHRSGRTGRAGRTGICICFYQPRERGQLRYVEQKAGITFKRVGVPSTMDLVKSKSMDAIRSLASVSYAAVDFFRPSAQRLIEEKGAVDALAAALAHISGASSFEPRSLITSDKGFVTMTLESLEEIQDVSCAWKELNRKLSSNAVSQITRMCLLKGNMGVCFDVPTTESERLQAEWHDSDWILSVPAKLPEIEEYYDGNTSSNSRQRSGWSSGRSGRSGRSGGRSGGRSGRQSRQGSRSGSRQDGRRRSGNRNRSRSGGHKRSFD
UniProt Q9NZC2, sequence (whole entry, looked up): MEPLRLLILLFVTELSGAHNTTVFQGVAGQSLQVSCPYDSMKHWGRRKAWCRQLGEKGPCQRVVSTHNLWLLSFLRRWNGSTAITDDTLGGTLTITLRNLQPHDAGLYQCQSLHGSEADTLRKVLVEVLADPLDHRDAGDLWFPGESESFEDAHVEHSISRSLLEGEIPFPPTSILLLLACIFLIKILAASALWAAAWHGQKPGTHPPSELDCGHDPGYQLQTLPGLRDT
UniProt P49333, sequence (whole entry, looked up): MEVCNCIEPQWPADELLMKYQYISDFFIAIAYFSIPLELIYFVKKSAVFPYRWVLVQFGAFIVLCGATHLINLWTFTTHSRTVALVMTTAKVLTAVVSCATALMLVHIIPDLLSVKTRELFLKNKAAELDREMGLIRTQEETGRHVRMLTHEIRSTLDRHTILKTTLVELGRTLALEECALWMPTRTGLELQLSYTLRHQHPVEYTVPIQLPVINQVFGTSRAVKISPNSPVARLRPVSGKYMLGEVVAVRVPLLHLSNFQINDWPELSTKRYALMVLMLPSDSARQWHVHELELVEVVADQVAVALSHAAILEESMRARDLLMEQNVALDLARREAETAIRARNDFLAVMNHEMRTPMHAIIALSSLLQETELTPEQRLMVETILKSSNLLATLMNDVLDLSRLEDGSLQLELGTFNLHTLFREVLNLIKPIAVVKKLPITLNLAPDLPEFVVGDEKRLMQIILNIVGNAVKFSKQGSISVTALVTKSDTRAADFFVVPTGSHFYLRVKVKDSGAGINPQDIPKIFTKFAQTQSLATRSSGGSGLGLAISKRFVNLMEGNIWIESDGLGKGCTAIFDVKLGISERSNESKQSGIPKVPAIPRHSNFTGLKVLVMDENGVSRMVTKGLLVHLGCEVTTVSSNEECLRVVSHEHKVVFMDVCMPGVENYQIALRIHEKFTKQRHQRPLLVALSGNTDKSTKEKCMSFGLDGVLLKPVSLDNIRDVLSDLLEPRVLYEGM
UniProt O09061, sequence (whole entry, looked up): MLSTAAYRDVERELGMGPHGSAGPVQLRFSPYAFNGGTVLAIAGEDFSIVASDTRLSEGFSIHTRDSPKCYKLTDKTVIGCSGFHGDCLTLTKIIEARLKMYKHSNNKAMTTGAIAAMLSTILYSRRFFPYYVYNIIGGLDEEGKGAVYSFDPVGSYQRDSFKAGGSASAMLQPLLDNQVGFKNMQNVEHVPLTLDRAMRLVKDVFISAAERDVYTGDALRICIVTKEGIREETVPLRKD
UniProt Q92769, sequence (whole entry, looked up): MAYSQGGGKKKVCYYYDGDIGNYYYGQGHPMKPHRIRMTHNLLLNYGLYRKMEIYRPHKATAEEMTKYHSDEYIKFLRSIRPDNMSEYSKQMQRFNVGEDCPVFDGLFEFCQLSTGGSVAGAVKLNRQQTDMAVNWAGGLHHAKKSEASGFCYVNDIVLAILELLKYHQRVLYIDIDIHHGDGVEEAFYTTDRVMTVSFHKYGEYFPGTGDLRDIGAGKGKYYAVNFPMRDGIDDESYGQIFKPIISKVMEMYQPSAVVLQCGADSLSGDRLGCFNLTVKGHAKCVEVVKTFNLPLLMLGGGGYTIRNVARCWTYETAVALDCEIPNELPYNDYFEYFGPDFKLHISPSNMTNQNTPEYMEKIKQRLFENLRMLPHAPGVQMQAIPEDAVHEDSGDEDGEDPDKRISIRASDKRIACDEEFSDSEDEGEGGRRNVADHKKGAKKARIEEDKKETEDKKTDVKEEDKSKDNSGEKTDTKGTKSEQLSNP

O=C(O)Cc1cccnc1
Kd (USP16 ZnF-UBD domain): 96.1 µM

CCCCCCCCCCCCCCCC(=O)O
Kd (uncharacterized protein (Kocuria marina, UniProt A0A0B0D9P4); heme spectral shift, substrate, UV-visible spectral titration): 7.66 µM

Cn1cc(-c2ccc(-c3cncc(Cl)c3N3CCC4(CCNC4=O)CC3)cc2)cn1
log2 fold change (COLO 205; gene expression, microarray, item: PLK4 mRNA; concentration not given, 2 h; reference: untreated cells): -1.74

O=C(O)CCn1nnc(-c2ccccc2)n1
Kd (USP16 ZnF-UBD domain): 482 µM

NCCCNCCCCNCCCN
Kd (MFS-type transporter SLC18B1 (SLC18B1, Homo sapiens, UniProt Q6NT16, E171A); binder): 230 µM

O=C(O)Cn1ccc2ccccc2c1=O
Kd (USP16 ZnF-UBD domain): > 1000 µM

CC(C)C[C@H](NC(=O)[C@H](CCc1ccccc1)NC(=O)CN1CCOCC1)C(=O)N[C@@H](Cc1ccccc1)C(=O)N[C@@H](CC(C)C)C(=O)[C@@]1(C)CO1
IC50 (Proteasome subunit beta type-1/Psmb8, LMP7 subunit (Mus musculus, UniProt O09061+P28063); proteasome subunit activity; Ba/F3 BCR-ABL1 T315I; 1 h pulse): 0.00773 ± 0.0002 µM

CCn1c(-c2nc3cc(C(=O)N4CCC[C@@H](N)C4)cc(OC)c3n2C)cc2cccnc21
IC50 (PADI4 (Homo sapiens, UniProt Q9UM07); binding, fluorescence polarisation; together with: tracer displacement, 0.2 mM Ca2+): 0.211 µM

Nc1ncnc2c1ncn2[C@@H]1O[C@H](COP(=O)(O)CP(=O)(O)OP(=O)(O)O)[C@@H](O)[C@H]1O
calcium influx (P2X purinoceptor 1 (P2RX1, Homo sapiens, UniProt P51575, E282A); calcium influx; 3.16 nM; reference: ionomycin response): 2.28% and 0%

COc1cnc2cccc(N3CCc4c(cc(Cn5ccnc5C)cc4-c4cn(C)nc4C(F)(F)F)C3=O)c2c1
EC50 (RERFGC1B; cell growth; 120 h): 3.14 µM

OC[C@H]1OC(O)[C@H](O)[C@@H](O)[C@@H]1O (stereo partly drawn)
Kd (ATP-dependent RNA helicase DDX50 (DDX50, Homo sapiens, UniProt Q9BQ39, K187G); microscale thermophoresis; purified recombinant DDX protein): 939 ± 419 µM

O=C(OCC1COC(Cn2ccnc2)(c2ccc(Cl)cc2Cl)O1)c1ccccc1 (stereo not drawn)
Kd (CYP2D6; binding; 20 min, pH 7.4, purified protein, 2% DMSO): 4.28 µM

Nc1ncnc2c1ncn2[C@@H]1O[C@H](COP(=O)(O)OP(=O)(O)OP(=O)(O)O)[C@@H](O)[C@H]1O
Kd (ATP-dependent RNA helicase DDX50 (DDX50, Homo sapiens, UniProt Q9BQ39, V227W); binding, microscale thermophoresis; 25 °C, no glucose): 11.7 ± 4.13 µM

CCCCOc1ccc(CC(=O)NO)cc1
Kd (HDAC2 (Homo sapiens, UniProt Q92769); inhibitor, competition pulldown; SW620 and MV4-11 lysate; 1 h): > 30.2 µM

O=C(O)CCn1cnc2ccccc21
Kd (USP16 ZnF-UBD domain): > 1000 µM

Cc1ccc(C(=O)Cn2c3c(sc2=N)CCCC3)cc1
Kd (Ethylene receptor 1 (ETR1, Arabidopsis thaliana, UniProt P49333); binding): 7.85 µM

O=C(O)CC[C@H](NC(=O)N[C@@H](CCCCNC(=O)[C@H](Cc1ccc2ccccc2c1)NC(=O)CCCCCNC(=O)CN1CCN(CC(=O)O)CCN(CC(=O)O)CCN(CC(=O)O)CC1)C(=O)O)C(=O)O [gallium-68 labelled]
tissue uptake (gamma counting; mouse, PC-3 xenograft, kidney; intravenous, 3.7 MBq, 2 h): 32.4 ± 2.36 %ID/g

OC(CCc1ccc(Cl)cc1)Cn1ccnc1 (stereo not drawn)
Kd (CYP2D6; binding; 20 min, pH 7.4, purified protein, 2% DMSO): 30.9 µM

CS(=O)(=O)c1cccc(CNc2nc(Nc3ccc4c(c3)CCC(=O)N4)ncc2C(F)(F)F)c1
Kd (Carboxypeptidase Z (CPZ, Homo sapiens, UniProt Q66K79); binding): 7.5 µM

CC(C)C[C@H](NC(=O)C[C@H](O)[C@H](CC(C)C)NC(=O)[C@H](Cc1c[nH]cn1)NC(=O)CNC(=O)[C@@H](NC(=O)[C@H](C)NC(=O)[C@H](Cc1c[nH]c2ccccc12)NC(=O)[C@H](CCC(N)=O)NC(=O)[C@@H](Cc1ccccc1)NC(=O)COCCOCCNC(=O)CCC(C(=O)O)N1CCN(CC(=O)O)CCN(CC(=O)O)CCN(CC(=O)O)CC1)C(C)C)C(N)=O (stereo partly drawn) [lutetium-177 labelled]
tissue uptake (female BALB/c nu/nu mice, pancreas; intravenous, 100 pmol, 4 h, together with: PA 300 µg): 0.5 ± 0.06 %ID/g

OC[C@H]1O[C@H](O[C@H]2[C@H](O)[C@@H](O)[C@H](O)O[C@@H]2CO)[C@H](O)[C@@H](O)[C@@H]1O
log2 fold change (binding, MIDAS equilibrium dialysis LC-MS; A2AR-BRIL thermostabilized; concentration not given; reference: no-protein control): -0.0693

CCCCC(=O)OCC(=O)[C@]1(O)Cc2c(O)c3c(c(O)c2[C@@H](O[C@H]2C[C@H](NC(=O)C(F)(F)F)[C@H](O)[C@H](C)O2)C1)C(=O)c1c(OC)cccc1C3=O
Kd (Cytochrome P450 2J2 (CYP2J2, Homo sapiens, UniProt P51589); 2 min, pH 7.4): 2.51 ± 0.14 µM

CC[N+](CC)(CC)CC
Kd (S-type K+ channel (Aplysia californica); single-channel current, open-channel blocker, inside-out patch clamp; pH 7.4, internal application, 0 mV): 42000 µM

O=C(O)CNC(=O)c1ccc(C(=O)N2CCC(c3ccc(Cl)cc3)CC2)cn1
Kd (USP16 ZnF-UBD domain): 436 µM

C=C1CC(C(=O)Nc2cc(C(=O)NC)cc(-c3ccc(N4CCOCC4)cc3)c2OC)C1
Kd (Triggering receptor expressed on myeloid cells 2 (Homo sapiens, UniProt Q9NZC2); binding): 146 ± 9.7 µM

O=C(O)CCc1ccccc1OCc1ccccn1
Kd (USP16 ZnF-UBD domain): 48.2 µM

NS(=O)(=O)c1ccccc1
Kd (CA6 (Homo sapiens, UniProt P23280); binding, thermal shift; pH 7.0, 25 °C): 5 µM

COc1cc2c(cc1OC)[C@H]1C[C@@H](O)[C@H](CC(C)C)CN1CC2
Kd (MFS-type transporter SLC18B1 (SLC18B1, Homo sapiens, UniProt Q6NT16, F144A); binder; radiolabeled protein variants): 92.8 µM

CC(=O)Nc1sc2c(c1-c1nc3ccccc3s1)CCN(C(C)C)C2
Kd (CSNK1A1; binding, surface plasmon resonance; up to 50 µM): no binding

Nc1ncnc2c1ncn2[C@@H]1O[C@H](COP(=O)(O)OP(=O)(O)O)[C@@H](O)[C@H]1O
Kd (CKMT1A (Homo sapiens, UniProt P12532, E265Q); microscale thermophoresis; pH 8.5, together with: phosphocreatine 10 mM): 3 ± 2 µM

Cc1ccc(S(=O)(=O)OC[C@H]2CO[C@](Cn3ccnc3)(c3ccc(Cl)cc3Cl)O2)cc1
Kd (CYP2D6; binding; 20 min, pH 7.4, purified protein, 2% DMSO): 3.36 µM

CNCCOC12CC3(C)CC(C)(CC(Cn4ncc(-c5ccc(N6CCc7cccc(C(=O)Nc8nc9ccccc9s8)c7C6)nc5C(=O)O)c4C)(C3)C1)C2
plasma concentration (anaesthetised male beagle dogs; intravenous bolus, 0.03 mg/kg, 180 min): 0 ng/mL

O=C(O)Cn1cnc2c(oc3ccccc32)c1=O
Kd (USP16 ZnF-UBD domain): 344 µM

C[n+]1cn([C@@H]2O[C@H](COP(=O)(O)CP(=O)(O)OP(=O)(O)OC[C@H]3O[C@@H](n4cnc5c(=O)[nH]c(N)nc54)[C@H](O)[C@@H]3O)[C@@H](O)[C@H]2O)c2nc(N)[nH]c(=O)c21
Kd (m7GpppX diphosphatase, WT/mutant heterodimer (DCPS, Homo sapiens, UniProt Q96C86); binding, Trp fluorescence quenching; 10% glycerol; 20 °C): 0.00737 µM

Cc1ncc(CO)c(CO)c1O
Kd (MRP4 Myzus persicae; binding, microscale thermophoresis): 51.6 µM

OC[C@@H]1CO[C@](Cn2ccnc2)(c2ccc(Cl)cc2Cl)O1 (relative stereo)
Kd (CYP2D6; binding; 20 min, pH 7.4, purified protein, 2% DMSO): 6.09 µM

COc1cc(C(C)=O)c(F)cc1O
Kd (CSNK1A1; binding, surface plasmon resonance; up to 50 µM): no binding

O=C(O)CCc1ccno1
Kd (USP16 ZnF-UBD domain): > 1000 µM

O=C(O)c1cc(C(=O)O)c2c(n1)c(O)c(O)c1cc(C(=O)O)[nH]c12
Kd (Pyrroloquinoline-quinone synthase (pqqC, Klebsiella pneumoniae, UniProt P27505); fluorescence titration; pH 8.0, room temperature, anaerobic): 0.05 µM

CC(=O)N[C@H]1[C@@H](OP(=O)(O)OP(=O)(O)OC[C@H]2O[C@@H](n3ccc(=O)[nH]c3=O)[C@H](O)[C@@H]2O)O[C@H](CO)[C@H](O)[C@@H]1O
log2 fold change (binding, MIDAS equilibrium dialysis LC-MS; A2AR-BRIL thermostabilized; concentration not given; reference: no-protein control): -0.188

Cc1c(-c2ccc(N3CCc4cccc(C(=O)Nc5nc6ccccc6s5)c4C3)nc2C(=O)O)cnn1CC12CC3(C)CC(C)(C1)CC(OCCNCC[C@H](O)CO)(C3)C2
heart rate change (beagle dog, male, anaesthetised; intravenous infusion, 0.3 mg/kg/min, 60 (unit not given); reference: vehicle): -7%

Nc1ncnc2c1ncn2[C@@H]1O[C@H](COP(=O)(O)OP(=O)(O)O)[C@@H](O)[C@H]1O
Kd (GUK1 (Homo sapiens, UniProt Q16774, R133A); binding, ITC; 25 °C, together with: GMP): > 200 µM

CC(C)(COP(=O)(O)OP(=O)(O)OC[C@H]1O[C@@H](n2cnc3c(N)ncnc32)[C@H](O)[C@@H]1OP(=O)(O)O)[C@@H](O)C(=O)NCCC(=O)NCCS
Kd (RNA cytidine acetyltransferase (Homo sapiens, UniProt Q9H0A0); competitor, competition MS pulldown; SW-620 cell lysate; together with: photo-immobilized beads): 44.1 µM

C#Cc1c(F)ccc2cc(O)cc(-c3ncc4c(N5CC6CCC(C5)N6)nc(OC[C@@]56CCCN5C[C@H](F)C6)nc4c3F)c12
Kd (Ras-related protein R-Ras2, GDP-bound (RRAS2, Homo sapiens, UniProt P62070); binding, surface plasmon resonance): > 30 µM

CC(C)C[C@H](NC(=O)C[C@H](O)[C@H](CC(C)C)NC(=O)[C@H](Cc1c[nH]cn1)NC(=O)CNC(=O)[C@@H](NC(=O)[C@H](C)NC(=O)[C@H](Cc1c[nH]c2ccccc12)NC(=O)[C@H](CCC(N)=O)NC(=O)[C@@H](Cc1ccccc1)NC(=O)COCCOCCNC(=O)CN1CCN(CC(=O)O)CCN(CC(=O)O)CCN(CC(=O)O)CC1)C(C)C)C(N)=O [lutetium-177 labelled]
tissue uptake (female BALB/c nu/nu mice, stomach; intravenous, 50 pmol, 24 h): 0.02 ± 0.01 %ID/g

Excerpt of the above:
OC[C@H]1O[C@H](O[C@H]2[C@H](O)[C@@H](O)[C@H](O)O[C@@H]2CO)[C@H](O)[C@@H](O)[C@@H]1O
log2 fold change (binding, MIDAS equilibrium dialysis LC-MS; A2AR-BRIL thermostabilized; concentration not given; reference: no-protein control): -0.0693

C#Cc1c(F)ccc2cc(O)cc(-c3ncc4c(N5CC6CCC(C5)N6)nc(OC[C@@]56CCCN5C[C@H](F)C6)nc4c3F)c12
Kd (Ras-related protein R-Ras2, GDP-bound (RRAS2, Homo sapiens, UniProt P62070); binding, surface plasmon resonance): > 30 µM

COc1cnc2cccc(N3CCc4c(cc(Cn5ccnc5C)cc4-c4cn(C)nc4C(F)(F)F)C3=O)c2c1
EC50 (RERFGC1B; cell growth; 120 h): 3.14 µM

CC(=O)Nc1sc2c(c1-c1nc3ccccc3s1)CCN(C(C)C)C2
Kd (CSNK1A1; binding, surface plasmon resonance; up to 50 µM): no binding
